# Measurements from different studies.
# Compare with care: the assays were run in different laboratories. Values joined by “and” are separate records of one study, mostly repeats; a detail may differ.
# KIT T670I/V559D: Mast/stem cell growth factor receptor Kit (KIT, Homo sapiens, UniProt P10721, T670I/V559D)
# KIT D816H: Mast/stem cell growth factor receptor Kit (KIT, Homo sapiens, UniProt P10721, D816H)
# KIT: Mast/stem cell growth factor receptor Kit (KIT, Homo sapiens, UniProt P10721)
Compound,target,test,conditions,how to read,measurement,value
C=C1CCCCCCCCCC(CO)C1=O (centres unmarked),KIT T670I/V559D,cell-free assay,10 µM,,remaining signal,94%
CNC(=O)C1CCN(c2cc(C)c(F)cc2NC(=O)c2ccc(-c3cc(O)ccc3C)c(C)c2)CC1,KIT D816H,"binding, competition with immobilised ligand",1 µM,,remaining binding,40%
C=CC(=O)N1CCc2ccc(-n3c(=O)ccc4cnc5ccc(-c6cnn(C)c6)cc5c43)cc21,"Mast/stem cell growth factor receptor Kit, autoinhibited (KIT, Homo sapiens, UniProt P10721)",KINOMEscan,1 µM,relative to: DMSO control,remaining binding,98%
O=C=[N][Ru-4]123([n]4c5ccc(O)cc5c5c6c(c7cc(F)c[n+]1c7c54)C(=O)NC6=O)[S+]1CC[S+]2CC[S+]3CC1 (centres unmarked),KIT D816H,enzyme activity,"100 nM, human enzyme, added: 10 µM ATP",relative to: untreated,remaining activity,54%
COc1cc(OC)c(F)c(/C=C/c2cnc3ccn(S(=O)(=O)c4cn(CCF)cn4)c3n2)c1F,KIT,,100 nM,,inhibition,3.1%
C=CC(=O)N1Cc2nc(-c3cc(-c4cc(Cl)cnc4Cl)c(F)cc3F)n(-c3ccncn3)c2C1,KIT,"cell-free assay, inhibitor",1 µM,,inhibition,9.8%
Nc1ncc(-c2cc(-c3cnn(CC(F)(F)F)c3)ncc2F)nc1C(=O)NC1CNCC(F)C1 (centres unmarked),KIT,enzyme activity,1 µM,relative to: DMSO control,remaining activity,98.2%
COCC12C(=O)NC3C4(C(OC)CC1O)C1CC5(O)C(OC)C(O)C(OC(C)=O)(C1C5OC(=O)c1ccccc1)C3(O)C(OC)C24 (centres unmarked),"KIT (Homo sapiens, UniProt P10721, T670I)","kinase activity, inhibitor, ProQinase kinase profiling",25 µM,relative to: control,remaining activity,103% and 95%
COc1c(Cl)cccc1Nc1c(-c2ccncc2C#C[C@@]2(C)CCCN2C(=O)/C=C/CN(C)C)[nH]c2c1C(=O)NCC2,KIT T670I/V559D,"binding, competition with immobilised ligand",3 µM,,remaining binding,87%
C=CC(=O)N1CCCC(n2c(=O)c3ncccc3n(Cc3ccc(Oc4ccccc4)cc3)c2=O)C1 (centres unmarked),"KIT (Homo sapiens, UniProt P10721, D816V)","cell-free assay, competition with immobilised ligand",1 µM,,remaining binding,96%
CC(C)=CC1OC(C)(C)C2C=C3C(=O)C(Cl)=CC(O)C3C3C(O)C4OC4C(=O)C132 (centres unmarked),KIT D816H,"cell-free assay, competition with immobilised ligand",10 µM,,remaining binding,70%
Cc1nc2c(F)cc(-c3nc(Nc4ccc(CNC(=O)CCCCCCC(=O)NO)cc4)ncc3F)cc2n1C(C)C,KIT,"enzyme activity, inhibitor",1 µM,,inhibition,72%
COc1c(OCCCN2CCOCC2)ccc2c1N=C(NC(=O)c1cnc(N)nc1)N1CCN=C21,KIT,"kinase activity, inhibitor",1 µM,relative to: untreated control,remaining activity,121%
C[C@H]1CN(C(=O)c2cn(-c3ccnc(N)n3)c3cc(C#CC4(O)CCCCC4)ccc23)CCN1,KIT,"enzyme activity, inhibitor, FRET",1 µM,,inhibition,1%
NC(=O)[C@@H](O)C[C@H]1CCc2sc3ncnc(O[C@H]4CC[C@H](N5CCOCC5)CC4)c3c21,KIT,"enzyme activity, inhibitor",10 µM,,inhibition,0%
CCN1CCN(Cc2ccc(C(=O)Nc3ccc(C)c(NCc4cnc5[nH]ccc5c4OC)c3)cc2C(F)(F)F)CC1,KIT D816H,"binding, competition with immobilised ligand",1 µM,,remaining binding,18%
CNC1C[S+]2CC[S+]3CC[S+](C1)[Ru-4]321([N]=C=S)[n]2c3ccc(OC)cc3c3c4c(c5cc(F)c[n+]1c5c32)C(=O)NC4=O (centres unmarked),"KIT (Homo sapiens, UniProt P10721, L576P)",KinomeScan,0.1 µM,relative to: untreated,remaining binding,56%
Cc1cccc(O[C@H]2CCC[C@@H](C(C)CNCc3ccncc3)C2)c1 (relative stereo),KIT,"enzyme activity, inhibitor",10 µM,,inhibition,-4%
CNC(=O)C[C@H](Cc1ccc(C#N)cc1)NC(=O)c1cc(-c2ccc(CN[C@H](C)c3ccc(C)cc3)o2)ccc1Cl,KIT,"enzyme activity, inhibitor",1 µM,,activity vs control,121%
COc1ccc(C(=O)/C=C/c2ccccc2-c2c[nH]c3ccc(C#N)cc23)c(O)c1,KIT,"enzyme activity, inhibitor",20 µM,,inhibition,4%
Cc1cnc2nc1Nc1cccc(c1)COC/C=C/COCc1cc(ccc1OCCN1CCOCC1)N2,KIT T670I/V559D,binding,0.1 µM,,remaining binding,99%
C=CC(=O)Nc1cccc(-c2cnc3[nH]cc(C(=O)NC(C)(C)C)c3n2)c1,KIT,kinase activity,0.1 µM,,inhibition,-7% and -6%
Nc1ncc2c(n1)-c1c([nH]c3ccc(C4=CCOCC4)cc13)CCC2,KIT T670I/V559D,"binding, competition with immobilised ligand",1 µM,,remaining binding,100%
